Results collected from several papers.
± gives the spread as reported.
Chain of UniProt P27487 (whole entry, looked up): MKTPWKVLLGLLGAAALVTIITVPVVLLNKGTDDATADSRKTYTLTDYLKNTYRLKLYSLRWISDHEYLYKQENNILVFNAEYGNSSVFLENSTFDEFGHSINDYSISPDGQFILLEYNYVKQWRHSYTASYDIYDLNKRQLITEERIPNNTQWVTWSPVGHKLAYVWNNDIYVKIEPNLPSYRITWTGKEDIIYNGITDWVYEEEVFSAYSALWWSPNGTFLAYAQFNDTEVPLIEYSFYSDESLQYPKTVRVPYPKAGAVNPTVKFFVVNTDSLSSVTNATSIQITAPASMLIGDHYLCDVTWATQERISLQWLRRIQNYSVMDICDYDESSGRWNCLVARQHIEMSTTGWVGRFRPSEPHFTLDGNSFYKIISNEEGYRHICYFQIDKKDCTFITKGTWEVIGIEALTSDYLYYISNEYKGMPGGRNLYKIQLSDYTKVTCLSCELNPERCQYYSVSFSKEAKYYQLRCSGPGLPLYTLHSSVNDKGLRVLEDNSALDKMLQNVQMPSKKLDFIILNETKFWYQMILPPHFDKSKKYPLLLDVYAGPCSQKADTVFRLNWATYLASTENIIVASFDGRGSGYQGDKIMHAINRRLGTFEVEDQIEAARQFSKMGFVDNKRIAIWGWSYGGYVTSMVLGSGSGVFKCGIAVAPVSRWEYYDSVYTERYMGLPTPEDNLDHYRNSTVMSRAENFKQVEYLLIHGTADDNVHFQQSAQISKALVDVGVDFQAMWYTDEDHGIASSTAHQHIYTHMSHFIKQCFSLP
Chain of UniProt Q15746 (whole entry, looked up): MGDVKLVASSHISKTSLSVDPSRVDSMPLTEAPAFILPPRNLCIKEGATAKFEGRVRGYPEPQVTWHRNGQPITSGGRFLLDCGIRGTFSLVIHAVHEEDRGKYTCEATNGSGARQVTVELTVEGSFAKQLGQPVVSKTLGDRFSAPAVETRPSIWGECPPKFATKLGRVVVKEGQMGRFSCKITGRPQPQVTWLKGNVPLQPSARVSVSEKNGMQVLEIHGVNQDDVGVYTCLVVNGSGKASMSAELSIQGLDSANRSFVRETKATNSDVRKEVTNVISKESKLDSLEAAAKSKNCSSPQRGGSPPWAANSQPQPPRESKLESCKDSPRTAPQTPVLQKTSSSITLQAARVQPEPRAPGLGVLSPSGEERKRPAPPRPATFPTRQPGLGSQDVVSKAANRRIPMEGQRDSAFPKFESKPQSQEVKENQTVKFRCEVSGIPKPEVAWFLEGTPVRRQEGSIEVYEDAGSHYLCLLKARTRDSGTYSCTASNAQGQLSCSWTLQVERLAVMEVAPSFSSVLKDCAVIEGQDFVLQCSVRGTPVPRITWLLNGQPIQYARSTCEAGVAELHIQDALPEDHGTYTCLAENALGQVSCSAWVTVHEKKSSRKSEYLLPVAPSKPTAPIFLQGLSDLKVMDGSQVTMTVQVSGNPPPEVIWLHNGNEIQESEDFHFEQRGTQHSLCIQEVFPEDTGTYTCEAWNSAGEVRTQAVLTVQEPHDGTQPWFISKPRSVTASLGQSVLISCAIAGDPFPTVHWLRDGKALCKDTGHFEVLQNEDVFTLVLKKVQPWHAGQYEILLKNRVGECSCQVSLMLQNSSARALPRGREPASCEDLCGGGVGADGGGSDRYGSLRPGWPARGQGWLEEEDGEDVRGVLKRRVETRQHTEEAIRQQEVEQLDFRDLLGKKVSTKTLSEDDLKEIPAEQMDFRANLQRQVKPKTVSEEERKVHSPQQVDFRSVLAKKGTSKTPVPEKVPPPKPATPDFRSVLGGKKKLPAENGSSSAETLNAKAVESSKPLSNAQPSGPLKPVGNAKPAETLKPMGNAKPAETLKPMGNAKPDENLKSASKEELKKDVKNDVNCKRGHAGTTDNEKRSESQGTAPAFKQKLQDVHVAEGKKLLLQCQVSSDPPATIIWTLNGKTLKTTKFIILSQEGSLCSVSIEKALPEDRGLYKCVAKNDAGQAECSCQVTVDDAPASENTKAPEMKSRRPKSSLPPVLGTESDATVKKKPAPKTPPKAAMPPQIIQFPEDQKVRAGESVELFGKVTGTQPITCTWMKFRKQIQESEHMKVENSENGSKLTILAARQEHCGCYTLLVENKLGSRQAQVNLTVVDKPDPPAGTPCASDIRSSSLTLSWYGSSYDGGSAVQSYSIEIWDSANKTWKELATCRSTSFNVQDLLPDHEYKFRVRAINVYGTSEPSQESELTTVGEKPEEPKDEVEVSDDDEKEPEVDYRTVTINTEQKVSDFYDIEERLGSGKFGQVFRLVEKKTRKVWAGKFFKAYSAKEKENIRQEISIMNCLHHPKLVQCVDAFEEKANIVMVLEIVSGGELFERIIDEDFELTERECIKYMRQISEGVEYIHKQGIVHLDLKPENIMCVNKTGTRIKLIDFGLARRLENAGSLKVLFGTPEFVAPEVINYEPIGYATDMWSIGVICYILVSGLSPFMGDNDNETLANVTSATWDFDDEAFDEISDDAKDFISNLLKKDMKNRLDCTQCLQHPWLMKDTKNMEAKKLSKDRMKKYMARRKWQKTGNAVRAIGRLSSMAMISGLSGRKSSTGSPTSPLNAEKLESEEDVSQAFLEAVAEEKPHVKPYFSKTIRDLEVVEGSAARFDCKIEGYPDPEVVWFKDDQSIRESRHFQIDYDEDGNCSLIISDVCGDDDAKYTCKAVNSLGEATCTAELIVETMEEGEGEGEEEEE

`C[C@@H]1OC(=O)NN=C1c1ccc(-c2ccc(F)cc2)c(C(F)(F)F)c1` — result for “patients with adverse event”: 0% (phase I trial, measured: back pain all grades; human patients; 5 mg loading then 0.25 mg daily).
The accuracy of `O=c1ccc2cc3ccoc3cc2o1` is reported as 89.5% (rat plasma; 1000 ng/mL, 2 weeks, -70 °C, post-preparative stability).
The tmax of `C[C@]1(CO)Cc2ncn(-c3ccc(C#N)c(Cl)c3)c2C(=O)O1` is reported as 1 h (human, plasma; 20 mg, first dose fasted).
`CC(C)NCCCC[C@@H]1NC(=O)[C@H](Cc2ccc(O)cc2)NC(=O)[C@H](Cc2ccccc2)NC(=O)CC[C@H](C(=O)N[C@@H](CCCCNC(C)C)C(=O)N[C@@H](CCCCNC(=O)[C@H](CCC(=O)O)NC(=O)[C@H](CCC(=O)O)NC(=O)[C@H](CCC(=O)O)NC(=O)CN2CCN(CC(=O)O)CCN(CC(=O)O)CC2)C(N)=O)NC(=O)CNC(=O)[C@H](Cc2ccc3ccccc3c2)NC(=O)[C@@H](CCCNC(=N)N)NC1=O` [fluorine-18 labelled]: “standardized uptake value” 0.04 SUV (PET/CT; female CB17 SCID beige mice, U87.CD4 control xenograft, tumour; intravenous).
`CC(C)C[C@H](NC(=O)[C@H](CCC(N)=O)NC(=O)[C@H](CO)NC(=O)[C@H](CO)NC(=O)[C@H](CCCNC(=N)N)NC(=O)[C@H](CCCNC(=N)N)NC(=O)[C@H](CCCNC(=N)N)NC(=O)[C@H](CC(C)C)NC(=O)[C@H](Cc1c[nH]cn1)NC(=O)[C@@H](NC(=O)[C@H](CCCCN)NC(=O)[C@H](CCCNC(=N)N)NC(=O)[C@H](CCCNC(=N)N)NC(=O)[C@H](CCCNC(=N)N)NC(=O)[C@H](CCC(N)=O)NC(=O)[C@H](CCCNC(=N)N)NC(=O)[C@H](CCCNC(=N)N)NC(=O)[C@H](CCCCN)NC(=O)[C@H](CCCCN)NC(=O)[C@H](CCCNC(=N)N)NC(=O)CNC(=O)[C@@H](N)Cc1ccc(O)cc1)[C@@H](C)O)C(=O)N[C@@H](CCCCN)C(N)=O` — result for “latency to fall”: “no effect” (hanging wire test; rat; intra-CA1 bilateral, dose not given; baseline: saline).
For `O=C(c1ccc(Cl)cc1)N1CCN2C(=O)N(OC(=O)N3CCOc4ccccc43)C(=O)C2C1` (stereo not shown), the median ratio was 1.09 (Dipeptidyl peptidase 4 (DPP4, Homo sapiens, UniProt P27487); enzyme activity, inhibitor, MS-based ABPP; SW-620 in situ; 10 µM, 2 h, 37 °C; baseline: compound over DMSO, lower = stronger inhibition).
With `CCCSc1ccc2nc(NC(=O)OC)[nH]c2c1` the equilibrium solubility was 318 µg/mL (simulated gastric fluid; 24 h, pH 1.2, 37 °C).
Under “grade 3 Headache”, `COc1cc2c(Oc3ccc4[nH]c(C)cc4c3F)ccnc2cc1OCC1(N)CC1` is recorded as 0% (paediatric recurrent refractory sarcoma; 12 mg).
For `CC[C@H](C)[C@H](NC(=O)[C@H](Cc1ccccc1)NC(=O)[C@H](CCC(=O)O)NC(=O)[C@H](CCCNC(=N)N)NC(=O)[C@H](C)NC(=O)[C@H](C)NC(=O)[C@H](CCC(N)=O)NC(=O)[C@H](CCC(=O)O)NC(=O)[C@H](CCC(=O)O)NC(=O)[C@H](CC(C)C)NC(=O)[C@H](Cc1ccc(O)cc1)NC(=O)[C@H](CO)NC(=O)[C@H](CO)NC(=O)[C@@H](NC(=O)[C@H](CC(=O)O)NC(=O)[C@H](CO)NC(=O)[C@@H](NC(=O)[C@H](Cc1ccccc1)NC(=O)[C@@H](NC(=O)CNC(=O)[C@H](CCC(=O)O)NC(=O)[C@H](C)NC(=O)CCc1c[nH]cn1)[C@@H](C)O)[C@@H](C)O)C(C)C)C(=O)N[C@@H](C)C(=O)N[C@@H](Cc1c[nH]c2ccccc12)C(=O)N[C@@H](CC(C)C)C(=O)N[C@H](C(=O)N[C@@H](CCCNC(=N)N)C(=O)NCC(=O)N[C@@H](CCCNC(=N)N)C(=O)N[C@@H](CCCCNC(=O)COCCOCCNC(=O)COCCOCCNC(=O)CC[C@H](NC(=O)CCCCCCCCCCCCCCCCC(=O)O)C(=O)O)C(=O)NCC(=O)NCC(=O)N[C@@H](CO)C(=O)N[C@@H](CCCCNc1c(NCCCCCN(O)C(=O)CCC(=O)NCCCCCN(O)C(=O)CCC(=O)NCCCCCN(O)C(C)=O)c(=O)c1=O)C(=O)O)C(C)C` [zirconium-89 labelled], the tissue uptake was 0.03 %ID/g (rat, duodenum content; intravenous, 3 nmol/kg, 168 h).
With `C[C@H]1CN(c2n[nH]c3nc(N[C@H]4CC[C@H](NS(=O)(=O)CCC(F)(F)F)CC4)ncc23)CCO1` the relative abundance was 1.02 (Myosin light chain kinase, smooth muscle (MYLK, Homo sapiens, UniProt Q15746); inhibitor, Kinobeads competition profiling; 0.032 µM; baseline: vehicle).
Under “patients with acneiform dermatitis”, `O=C1Nc2cc3[nH]nc(-c4ccncc4)c3cc2CN1Cc1ccccc1` is recorded as 0% (CTCAE v4.03; advanced solid tumour patients; intravenous, 4.8 mg/kg).
`O=S(=O)(Nc1ccccc1)c1ccc(NC(=S)Nc2ccccc2)cc1`: “blood cell fraction” 21.3% (measured: NE%; female mouse, blood; oral, 80 mg/kg daily, 14 days).
For `CN1CC[C@@H](c2c(O)cc(O)c3c(=O)cc(-c4ccc(C(F)(F)F)cc4Cl)oc23)[C@@H]1CO`, the dizziness incidence was 15% (human, relapsed/refractory hematologic malignancies; oral, dose not given).
With `C[C@@H](O)[C@@H](CO)NC(=O)[C@@H](CCCNC(=N)N)NC(=O)[C@@H]1CCCN1C(=O)[C@@H]1CSSC[C@H](NC(=O)[C@H](Cc2ccccc2)NC(=O)CN2CCN(CC(=O)O)CCN(CC(=O)O)CCN(CC(=O)O)CC2)C(=O)N[C@@H](Cc2ccc(O)cc2)C(=O)N[C@@H](Cc2ccccc2)C(=O)N[C@@H](CCC(N)=O)C(=O)N[C@@H](CC(N)=O)C(=O)N1` [gallium-68 labelled] the tissue uptake was 0.49 %ID/g (Wistar rat, healthy, Pituitary gland; intravenous, 8 MBq, 60 min).
With `Clc1ccc(-c2ccccc2)cc1` the calcium was 11 ± 2 mg/dL (Sprague-Dawley rats, female, serum; inhalation, 23 µg/rat, 1 h after exposure).
`CC[C@H](C)[C@@H]1NC(=O)[C@@H]2CCCN2C(=O)[C@H](CC(C)C)NC(=O)[C@H](CC(C)C)NC(=O)CNC(=O)[C@@H](NC(=O)[C@@H](NC(=O)[C@H](CC(=O)O)NC(=O)CNC(=O)[C@@H](NC(=O)[C@H](C)NC(=O)CNC(=O)[C@H](CCCCN)NC(=O)[C@H](CC(C)C)NC(=O)[C@H](CC(C)C)NC(=O)[C@H](CCCCN)NC(=O)CNC(=O)[C@@H](NC(=O)[C@@H](N)CC(C)C)C(C)C)C(C)C)C(C)C)CSSC[C@@H](C(=O)O)NC1=O`: “log2 fold change” -2.01 (RNA-seq, measured: Adgre5; mouse, traumatic brain injury model, frontal cortex and hippocampus; dose not given; baseline: TBI alone).
With `CC(C)C[C@@H]1NC(=O)[C@H](CC(C)C)NC(=O)[C@H](Cc2c[nH]c3ccccc23)NC(=O)[C@H](CO)NC(=O)[C@H](Cc2c[nH]c3ccccc23)NC(=O)[C@@H]2CCCN2C(=O)[C@H](CC(C)C)NC(=O)[C@H](Cc2c[nH]cn2)NC(=O)[C@@H]2CCCN2C(=O)[C@H](CC(N)=O)NC(=O)[C@H](C)NC(=O)[C@H](Cc2ccc(O)cc2)NC(=O)[C@H](CS)NC(=O)[C@H](CCCCNC(=O)CN2CCN(CC(=O)O)CCN(CC(=O)O)CCN(CC(=O)O)CC2)NC1=O` [lutetium-177 labelled] the tumour uptake was 6.97 ± 1.04 %ID (BALB/c mice female 4T1 tumour, 4T1 tumour; intravenous, 3.7 MBq, 1 h, unblocked).
The liver weight of `O=C1OC[C@H]2OC(O)[C@H](O)[C@@H](O)[C@@H]2OC(=O)c2cc(O)c(O)c(O)c2-c2c(O)c(O)c3oc(=O)c4c(c(O)c(O)c5oc(=O)c2c3c54)-c2c1cc(O)c(O)c2O` (mixture of isomers) is reported as 1.32 g (BALB/c mice; 1000 mg/kg/day, 28 days, subacute toxicity study).
`OB(O)CSc1nc2ccccc2n1Cc1ccc(C(F)(F)F)cc1C(F)(F)F` gave a concentration of 3900 ng/mL (mouse, plasma; subcutaneous, 25 mg/kg, 8 h).
